Results gathered from unrelated publications.
Every numbered part comes from another study and shows a few of its results, in no order.

Series 1 — technique: RNA Bind-n-Seq; form: RNA; medium: in vitro; tested at: 200 nM; setting: whole 134-nt RNA, ends assumed; with: 150 mM LiCl; relative to: input library; direction: higher = stronger binding; each molecule: 7-deaza-guanosine replaces G
Target: Fragile X messenger ribonucleoprotein 1, C-terminal low-complexity region (Fmr1, Mus musculus, UniProt P35922)
All sequences stand within: GGGAGUUCUACAGUCCGACGAUC … UGGAAUUCUCGGGUGUCAAGG
Sequence | log2 enrichment
CCUGUGCUACACAUCGUAUGUACCGAAUCGGGGUUUUUGGGGUUUUUGGGGUUUUUGGGGAAAGUAUUAUGUUACGCCGUUCGGAUCUGC | -0.414
UGGCCCUGGUGGCAUGCGGGGAGGAAGAGGUGGCCUCAUGGAUCGUGGUGGUCCCGGUGGAAUGUUCAGAGGUGGCCGUGGUGGACACAG | -0.829
GUCCUGUGCUACACAUCGUAUGUACCGAAUCGGGAAAAAGGGUUUUUGGGUUUUUGGGAAAGUAUUAUGUUACGCCGUUCGGAUCUGCAC | -2.59
UGGCCCUGGUGGCAUGCGGGGAGGAAGAGGUGGCCUCAUAGAUCGUGGUGGUCCCGGUGGAAUGUUCAGAGGUGGCCGUGGUGGAGACAG | 0.252
GUCCUGUGCUACACAUCGUAUGUACCGAAUCGGGGAGGGGAAAAAAAGGGGUUUGGGGAAAGUAUUAUGUUACGCCGUUCGGAUCUGCAC | -0.483
UGAUCUCCAGGAUGACAUGCGAAGAUGCCAAAUCAUCCGAGACAUGAUUGGACCGGAAAAGACUUUGGUAAAUAUCCUCUCACACCACUA | 0.762
AUUAUAGACUUGAUCAAAACACAGGAAAAGGCAACUCCCAGGAACUUUCCGCCACGAUUCCAGGAUGGAUAUUACAGCUGACAGCUUUUC | -0.687
UGGCCCUGGUAGCAUGCGGGGAGGAAGAGGUGGCCUCAUGGAUCGUGGUGGUCCCGGUGGAAUGUUCAGAGGUGGCCGUGGUGGAGACAG | -0.224

Series 2 — technique: RNA Bind-n-Seq; form: RNA; medium: in vitro; tested at: not given; setting: 4-mer, random 30-nt RNA, single round; with: RocA, ADP, phosphate; relative to: input library; direction: higher = stronger binding
Target: Eukaryotic initiation factor 4A-I (EIF4A1, Homo sapiens, UniProt P60842, residues 1-406, full length assumed)
UniProt P60842, sequence (whole entry, looked up): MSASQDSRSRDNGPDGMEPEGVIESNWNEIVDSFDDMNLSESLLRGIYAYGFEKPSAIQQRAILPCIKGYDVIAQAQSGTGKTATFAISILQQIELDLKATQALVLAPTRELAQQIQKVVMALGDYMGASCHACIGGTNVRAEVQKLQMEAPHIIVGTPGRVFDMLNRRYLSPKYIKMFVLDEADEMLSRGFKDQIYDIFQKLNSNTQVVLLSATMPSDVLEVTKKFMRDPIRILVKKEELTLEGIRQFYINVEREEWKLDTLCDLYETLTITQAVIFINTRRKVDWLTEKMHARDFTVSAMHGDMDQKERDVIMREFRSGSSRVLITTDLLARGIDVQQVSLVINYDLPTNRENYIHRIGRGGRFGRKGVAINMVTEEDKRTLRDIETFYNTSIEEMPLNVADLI
Sequence | 4-mer enrichment [fold]
GUCC | 0.649
CAGG | 0.935
GACC | 0.67
AGUA | 1.62
UUUC | 0.622
UUAU | 0.917
GCCU | 0.621
ACCA | 0.663

Series 3 — technique: protein binding microarray; form: double-stranded DNA, one strand shown; medium: in vitro; tested at: not given; relative to: not given; direction: higher = stronger binding
Target: Histone acetyltransferase KAT6A, winged helix 1, GST fusion (KAT6A, Homo sapiens, UniProt Q92794, residues 1-85)
Setting: 8-mer, flanks averaged, mean of 2 arrays, mostly near background
Construct (chain): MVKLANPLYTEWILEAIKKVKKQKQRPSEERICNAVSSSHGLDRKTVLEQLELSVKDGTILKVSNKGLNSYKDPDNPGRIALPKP
Sequence | E-score
GACGAACC | 0.0441
CAGACCGA | 0.044
CCTGCACC | -0.116
GGTTCACA | 0.0361
AGCAATGG | -0.183
GCTATACC | 0.136
CCGGGGCA | 0.23
AACCGCTG | 0.0819

Single results of other studies
Sequence | target | test | system | setting | quantity | result
SLMSRVVYK | HLA class I histocompatibility antigen, A alpha chain, allele A*25:01 (Homo sapiens, UniProt P04439) | peptide-MHC binding | peptide | concentration not given | binding | inactive

A few entries again (series 1):
Sequence | log2 enrichment
UGGCCCUGGUGGCAUGCGGGGAGGAAGAGGUGGCCUCAUAGAUCGUGGUGGUCCCGGUGGAAUGUUCAGAGGUGGCCGUGGUGGAGACAG | 0.252
